Experimental data pooled from the literature.
Compare with care: the assays were run in different laboratories. Numbers after ± are the reported error.

[2H]C([2H])([18F])[C@]([2H])(N)C(=O)O
tissue uptake (PET; athymic nude mice, U-87 MG, tumor; dose not given, 60 min post-injection): 0.86 ± 0.08 %ID/cc

CC(C)C[C@@H](NC(=O)[C@@H](CCCNC(=N)N)NC(=O)[C@@H](Cc1c[nH]cn1)NC(=O)[C@@H](Cc1c[nH]c2ccccc12)NC(=O)[C@@H](Cc1c[nH]cn1)NC(=O)[C@@H](Cc1ccccc1)NC(=O)[C@H](NC(=O)[C@@H](Cc1ccc(O)cc1)NC(=O)CNC(=O)CNC(=O)CCOCCOCCOCCNC(=O)CN1CCN(CC(=O)O)CCN(CC(=O)O)CC1)[C@H](C)O)C(=O)N[C@H](CC(N)=O)C(=O)N1CCC[C@@H]1C(=O)O [gallium-68 labelled]
tissue uptake (gamma counting; C57BL/6 mice, male, brain; intravenous, 1.85 MBq, 120 min): 0.56 ± 0.07 %ID/g

CC[C@H](C)[C@H](NC(=O)[C@H](CCCNC(=N)N)NC(=O)[C@H](CCCCN)NC(=O)[C@H](Cc1ccc(O)cc1)NC(=O)[C@H](CC(=O)O)NC(=O)[C@H](C)NC(=O)CNC(=O)CCOCCOCCOCCNC(=O)CN1CCN(CC(=O)O)CCN(CC(=O)O)CCN(CC(=O)O)CC1)C(=O)N[C@H](C(=O)N[C@@H](CC(C)C)C(=O)N[C@@H](CCCCN)C(=O)N[C@H](C(=O)N[C@@H](CC(N)=O)C(N)=O)C(C)C)[C@@H](C)O [copper-64 labelled]
tissue uptake (ex vivo gamma counting; C57BL/6J male mice, B16-F10 tumour, heart; intravenous, 1.85 MBq, 5 min): 2.13 ± 0.09 %ID/g

CCCC[C@H]1C(=O)N(C)[C@@H](CCCC)C(=O)N[C@@H](CCCNC(=O)CN2CCN(CC(=O)O)CCN(CC(=O)O)CCN(CC(=O)O)CC2)C(=O)N[C@H](C(=O)NCC(N)=O)CSCC(=O)N[C@@H](Cc2ccc(O)cc2)C(=O)N(C)[C@@H](C)C(=O)N[C@@H](CC(N)=O)C(=O)N2CCC[C@H]2C(=O)N[C@@H](Cc2c[nH]cn2)C(=O)N[C@@H](CC(C)C)C(=O)N(C)CC(=O)N[C@@H](Cc2c[nH]c3ccccc23)C(=O)N[C@@H](CO)C(=O)N[C@@H](Cc2c[nH]c3ccccc23)C(=O)N1C [gallium-68 labelled]
tissue uptake (NOD/SCID mice, CHO-hPD-L1 xenograft, liver; 60 min, PBS pretreatment): 7.35 ± 1.35 %ID/g

CC[C@H](C)[C@H](NC(=O)[C@H](CCCNC(=N)N)NC(=O)[C@H](CCCCN)NC(=O)[C@H](Cc1ccc(O)cc1)NC(=O)[C@H](CC(=O)O)NC(=O)[C@H](C)NC(=O)CNC(=O)CCOCCOCCOCCNC(=O)CN1CCN(CC(=O)O)CCN(CC(=O)O)CCN(CC(=O)O)CC1)C(=O)N[C@H](C(=O)N[C@H](C(=O)N[C@@H](CCCCN)C(=O)N[C@H](C(=O)N[C@@H](CC(N)=O)C(N)=O)C(C)C)C(C)C)[C@@H](C)O [copper-64 labelled]
tissue uptake (ex vivo gamma counting; C57BL/6J male mice, B16-F10 tumour, liver; intravenous, 1.85 MBq, 20 min): 3.76 ± 0.511 %ID/g

CC[C@H](C)[C@H](NC(=O)[C@H](CCCCN)NC(=O)CNC(=O)[C@H](CC(C)C)NC(=O)[C@H](Cc1ccccc1)NC(=O)[C@H](CCCCN)NC(=O)[C@H](CO)NC(=O)[C@H](Cc1ccccc1)NC(=O)[C@H](Cc1c[nH]c2ccccc12)NC(=O)[C@H](CCC(N)=O)NC(=O)[C@@H](NC(=O)[C@H](Cc1ccccc1)NC(=O)CCCCCNC(=O)CN1CCN(CC(=O)O)CCN(CC(=O)O)CCN(CC(=O)O)CC1)C(C)C)C(=O)N[C@@H](CCC(=O)O)C(=O)N1CCC[C@H]1C(=O)N[C@@H](CC(=O)O)C(=O)N[C@H](C(=O)N[C@@H](CO)C(=O)N[C@@H](CCC(N)=O)C(=O)N[C@H](C(=O)N[C@@H](CCC(N)=O)C(=O)N[C@@H](CC(=O)O)C(=O)N1CCC[C@H]1C(=O)N[C@@H](CC(N)=O)C(=O)N[C@@H](CC(=O)O)C(=O)N[C@@H](CCC(N)=O)C(=O)N[C@@H](Cc1ccc(O)cc1)C(=O)N[C@@H](CCC(=O)O)C(=O)N1CCC[C@H]1C(=O)N[C@@H](Cc1ccccc1)C(=O)O)C(C)C)C(C)C [copper-64 labelled]
tissue uptake (C57BL/6 mice, male, tumour-free, heart; 2 h): 2.22 ± 0.2 %ID/g

C[C@H](O)[C@@H](NC(=O)[C@H]1CCCN1C(=O)[C@@H](CCCCN)NC(=O)[C@@H](CO)NC(=O)[C@@H](Cc1ccc(O)cc1)NC(=O)[C@@H](CC(N)=O)NC(=O)CCOCCOCCOCCNC(=O)CN1CCN(CC(=O)O)CCN(CC(=O)O)CCN(CC(=O)O)CC1)C(=O)N[C@H](CC(=O)O)C(=O)N[C@H](CCCNC(=N)N)C(=O)N[C@H](CCC(N)=O)C(=O)N[C@H](Cc1ccc(O)cc1)C(=O)N[C@H](Cc1c[nH]cn1)C(=O)N[C@H](Cc1ccccc1)C(N)=O [gallium-68 labelled]
tissue uptake (BALB/c nude mice U-87 MG tumour, lung; intravenous, 1.85 MBq, 2 h, radiolabelled): 0.09 ± 0.02 %ID/g

CSCC[C@H](NC(=O)CNC(=O)[C@H](CCCCN)NC(=O)[C@H](CC(C)C)NC(=O)[C@@H]1CCCN1C(=O)[C@H](CO)NC(=O)[C@H](Cc1c[nH]cn1)NC(=O)[C@H](Cc1c[nH]c2ccccc12)NC(=O)[C@H](CCCNC(=N)N)NC(=O)[C@H](CC(C)C)NC(=O)[C@H](CCCNC(=N)N)NC(=O)[C@H](Cc1c[nH]c2ccccc12)NC(=O)[C@H](CS)NC(=O)CCCCCNC(=O)CN1CCN(CC(=O)O)CCN(CC(=O)O)CCN(CC(=O)O)CC1)C(=O)O [copper-64 labelled]
tissue uptake (ex vivo biodistribution; BALB/c nude mice, bone; intravenous, dose not given, 6 h, Huh-7 tumour-bearing): 1.23 %ID/g

CC[C@H](C)[C@H](NC(=O)[C@@H](Cc1c[nH]c2ccccc12)NC(=O)[C@@H]1CCCN1C(=O)[C@H](CCCCN)NC(=O)[C@H](CCCCN)NC(=O)CCNC(=O)CCNC(=O)CN1CCN(CC(=O)O)CCN(CC(=O)O)CCN(CC(=O)O)CC1)C(=O)N[C@@H](C[Si](C)(C)C)C(=O)O [gallium-68 labelled]
tissue uptake (ex vivo biodistribution; nude mice, HT-29 xenograft, pancreas; 90 min, added: levocabastine 0.5 µmol): 0.3 ± 0.13 %ID/g
